Results gathered from unrelated publications.
Every numbered part comes from another study and shows a few of its results, in no order.

Sample 1 — technique: universal PBM; molecule type: double-stranded DNA, one strand shown; medium: in vitro; tested at: not given; direction: higher = stronger binding; measurement: E-score
Target: Sal-like protein 4, full length isoform B (SALL4, Homo sapiens, UniProt Q9UJQ4-2, residues 1-616)
Setting: 8-mer, flanks averaged, mean of replicates
AAGAGTGA: 0.119
ACCGATTC: -0.184
ACGTCCGC: -0.131
ACATCACA: 0.143
ACGTCAAA: 0.15
ATCTTGGG: -0.0483
CACTGACC: -0.225
ACAAACCC: 0.0641
GTGGTCGA: -0.209
ACTTATAC: 0.26
CTCCAGAA: -0.137
CTTCAACA: 0.156
CACATCCC: -0.0654
CGAACGAA: -0.138
GTCATGGA: -0.0201
ATGTAGGC: -0.0205
CGAGACTC: -0.175
AGACATCC: -0.0536
CCAGCGAC: -0.355
ACGGAACC: -0.0946
CAATGTGC: 0.0507
AAGTGGAA: 0.18
ACGCACGC: -0.141
AGGTTAAG: -0.12
ATGAAGTG: 0.19

Sample 2 — technique: protein-binding microarray; molecule type: double-stranded DNA, one strand shown; medium: in vitro; tested at: 250 nM; setting: 60-bp whole probe; with: salmon DNA 0.4 mg/ml; reference: random background probes; direction: higher = stronger binding; measurement: log fluorescence; shared flanks, not repeated: GCCTAGCAC … GTCTTGATTCGCTTGACGCTGCTG
Target: Interferon regulatory factor 5, full length, phosphomimetic (IRF5, Homo sapiens, UniProt Q13568-2, residues 1-514, K96S/S451D/S453D/S456D/S462D)
TCACTTCTCTTTTGGCTACTGTGCTAG: 1.48 z-score
TTAGATTTCAGGACTGGATTAGTGCTA: 0.682 z-score
TTACAACTGAGTATCGATTAGTGCTAG: 6.93 z-score
TCACTTCTGTTTTTGCTACTGTGCTAG: 1.19 z-score
TTAGGTATCGACTTTGGGTTAGTGCTA: 2.53 z-score
TTAGAACTGGGGTTTCGCTTAGTGCTA: 2.39 z-score
TCACCTCTAGGTTTTCTACTGTGCTAG: 0.361 z-score
AAGGATTTCAGTTTCTCTTTGTGCTAG: 3.9 z-score
TTAGGTTTCGACTATCGGTGAGTGCTA: 8.69 z-score
ACAGAACTCAACTGTCTGCCTGTGCTA: 0.016 z-score
GACGGTTTCGGTTTAGGGACGTGCTAG: 9.49 z-score
CACCGTCTTATTAAAAAACAGTGCTAG: 0.453 z-score
ACTGTGTTTTGGATGTCAGAGTGCTAG: 0.377 z-score
TTAGGTATCCTACTCCTTTAGTGCTAG: -0.169 z-score
TCAAGAATGCCTTTAATACTGTGCTAG: -0.0543 z-score
TCAATTCTCTTTTCACTACTGTGCTAG: 1.84 z-score
GACAGTATCCTTCTCCTGACGTGCTAG: 0.426 z-score

Sample 3 — technique: RNA Bind-n-Seq; molecule type: RNA; medium: in vitro; tested at: 365 nM; reference: no-protein control; direction: higher = stronger binding; measurement: RBNS enrichment (R)
Target: RNA binding protein fox-1 homolog 2, RRM domain, GST-SBP tag (RBFOX2, Homo sapiens, UniProt O43251-10, residues 100-194)
Setting: natural RNA segment, single round, ends assumed
Shared flanks, not repeated: GGGAGUUCUACAGUCCGACGAUC … UGGAAUUCUCGGGUGCCAA
Target sequence (chain): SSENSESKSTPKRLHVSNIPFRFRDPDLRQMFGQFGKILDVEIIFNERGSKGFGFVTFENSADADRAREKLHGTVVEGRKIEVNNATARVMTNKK
CCCCUCCAGCCCACUGCUUUAGGAUGACACAAUGAAUAACACCUAGUCAUAGAAAUCAGUCUCUCUGGUUUGUUUUGUAUUAUGUUGUACAUCAUUAAAGAUCUAAAUAC: 0.268
CAGAAAUGGAAAAAACUCUGCAAGAGAGUCUUGCUUUCAAGGAGAAAGGAAAAUGGCUUUGAAAAUGAGACAGUCUUUGUGGGUUUUGUCGUUGGUUUUUGUUUGUUUAC: 1.65
UGACCCCCGCCCUGUCCCUUUCAGUUUUGUCUGGGAGGGAGCACUAAAGCCUUUCCAGAGACUAUGCUAGAUACCACAGGCCCUGCCACCAUGGGCUGUGUAACCAGGCU: 0.393
UGAUCUAUUUCAGUAAAUCUCUUGGGACCACCAGUAUUUGGAUCUGACCUUGGUAGGACUAAAGUAUUGGGCAGAGCAGCAGCAGUCCCAGGUUUUGUUUGACCUGUGUA: 0.326
GGUGAAGUCUGUGUACCCAUACUGCAGCCCCAUCCCAUGGGGCCCCUGAAGACCCACUGAGGAAUUCCGUAGGGUCUUGUUCCCACGACCGGAGUGCUGGCUCUCACAGU: 0.403
CAGGAGCCUAGUGCAGGGUGAACACGAAGCUGCUUGAGCAGCAGGAGGUGGCUGGACCAUCGUACCCACGUAACCUGCCCAGGACGAUGCCUCGCUGGGGCUGAGACUUU: 0.349
CUGUCCGCAGAUCCUGACUUUUCCAAAGUGCCUUAAAAGAAAUCAGACAAAUGCCCUGAGUGGUAACUUCUGUGUUAUUUUACUCUUAAAACCAAACUCUACCUUUUCUU: 0.403
CUCCAGGGCCUUUGCAAGCCCAUCGCCCUCCUCACUGGAGACACCCAGACCUGCCUUCCUCCACCAAGAGAUCCUUAUUAAACACAGCCCCCAAAGCACAGAAUGGAUUC: 0.845
UAUACUAUGUUUGCGAACCUUGGUAGCUAUGAUGAGAGCUAUUAUCAUCUGUGGUGGGAAAAGCUAUGUAAAUAGGUAGAUUGUAUAGAGAGACUAUCUUGUGUUGUGCC: 1.17
GUCUUGGACUCAAAGGCUAAACUGAUCCAGUCCUUUCUCCUUUGUGUCAAUAAAAGGCUAAACUGAAGACCUCCAGAAGUGGACAGAUGUCUGGUUUUCUUUUUGGUGCU: 0.634
ACAAUACUUCUCUCUUCUGGUUUUUCCUGAAUGAGCCUGAUUUUGUUGCUGGUUUUCAUCAUCUAUGAGGGUAAAACGAGUACCCUUAAAAUCCCUGUGGCCAGUUUGAA: 0.2
CGUUCCUUACUGCAGAAUAGCAUAUAUAUCGCUUAAUCUUAAAUUUAUUAGAUAUGAGUUGUUUUCAGACUCAGACUCCAUUUGUAUUAUAGUCUAAUAUACAGGGUAGC: 0.867

Sample 4 — technique: RNA Bind-n-Seq; molecule type: RNA; medium: in vitro; tested at: not given; reference: input RNA pool; direction: higher = stronger binding; measurement: bound/input enrichment
Target: RING finger protein unkempt homolog, zinc fingers 1-6, GST-SBP tag (UNK, Homo sapiens, UniProt Q9C0B0, residues 30-357)
UniProt Q9C0B0, sequence (30-357, looked up): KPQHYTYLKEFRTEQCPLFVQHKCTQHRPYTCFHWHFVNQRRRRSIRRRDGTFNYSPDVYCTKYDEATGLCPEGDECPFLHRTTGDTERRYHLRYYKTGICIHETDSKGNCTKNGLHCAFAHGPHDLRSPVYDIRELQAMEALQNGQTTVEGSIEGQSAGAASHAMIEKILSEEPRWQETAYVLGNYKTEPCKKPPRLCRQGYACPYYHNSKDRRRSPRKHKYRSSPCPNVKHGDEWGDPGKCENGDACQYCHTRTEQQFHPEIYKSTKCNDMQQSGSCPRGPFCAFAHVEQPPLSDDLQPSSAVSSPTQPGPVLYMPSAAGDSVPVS
Setting: RNA with constant flanks, human-mouse chimeric sites, ends assumed
Shared flanks, not repeated: GGGAGUUCUACAGUCCGACGAUC … CAACAGAGGAUUGAGCAUCA
UUACCCGAGAACGAGGAUGAGCUGGAGAGCACCAACAGGCGCUACACCAAGAGGGACUGCAGCACUUUUCUCAGAACUAGUGAGACGGGCAUUGUGGACCAGGUCAUGGUCACUCUCAAC: 0.155 ratio
AGUUCCAAACCACCAUCAGAAAUGAAGAUGAGAUUACCCAGACGAGCCAAAACAGCUGCGCUACAGAAAAGUAAACUUAACCUUGCAGAGUUCCUUAAUGAAGAUACUAAGUUAGGAAGC: 0.465 ratio
CGCUGGCCCAAGCUGAUGUAAAUGUUUGGCCUCCAUCUCUCAGGCACGUGUGCCUUCUCUUAGUCCCUGUUUUCGGGAUGUUAUGAAUCUCAGUACUGUGGUUUGAAAGCAGUUAUGUUG: 0.244 ratio
CAUGUAUCUGCAGUACUUGAUGUGGACUACUCUCCCACUGGGAAGGAAUUUGUGUCUGCCAGCUUUGAUAAAUCUAUUAGAAUCUUUCCUGUGGACAAGAGCCGAAGCAGGGAAGUGUAU: 0.501 ratio
AUCCAGUACUCCAAUCACAAAGAACUAAAGACAGAUAAUACAUUAAACCAACGUGCGCAGGCAGUUCUUCAAGCUGUGACAGCUGUCCAGACAGCAAAUACUCCUCUUAGUGGCACCACA: 0.473 ratio
UAAGUUAUUUUGUACAGCUUUGUAAAUUCUUAACAUUAAUUUGUAAACAUGUUUAUUUUGUUUGGGUGCUUUAUUAAAUUAAGUACAUAGCUAAGGUAAUGAACAUCUUUUUCAGUAAUU: 0.447 ratio
AUCAAAUACUUUGGGGACAUCAUUAGUGUGGGACAGAGAUUGUUGCAAGGAGCUCGGAUCUUAGGGAUUCCAGUUAUCAUAACGGAACAAUACCCUAAAGGACUUGGCAGCACCGUUCAA: 0.205 ratio
GAGCCAAGCCGGCAGUUUGUAAAGGACUCAAUUCGGCUGGUUAAAAGAUGCACCAAACCCGACAGAAAAGAAUUCCAGAAGAUUGCCAUGGCUACAGCUAUAGGAUUUGCUAUAAUGGGA: 0.323 ratio
UUUGUAUUUAUGCUAAGCACGCGUGCUGGUGGUCUGGGCAUCAAUCUUGCAACUGCUGAUGUAGUCAUUUUAUAUGACUCAGAUUGGAAUCCGCAAGUUGAUCUUCAGGCUAUGGACCGU: 0.102 ratio
AUGGAACAUUUUGAUGCGUCACUCAGUACCUAUUUCAAGGCCUUCCUGGGCCCCCGAGAUACAAGAGUAAAAGGAUGGUUCCUCCUGGACAAUUACAUCCCUACGUUUGUCUGUUCUGUU: 0.126 ratio
GCUCCUCCCCGCUCUGCCCCUGCCUGCCUUUUGGCAAGGACCAGAAUCCAGCUUUCUUUUAAAACUCUCAGUGUAACUGUAUCCCGUGACAUUUCAUUUUUUUUAAAUAGUGUAUUUUUU: 5.3 ratio

Some of these lines once more (sample 1):
CACATCCC: -0.0654
CGAACGAA: -0.138
GTCATGGA: -0.0201
ATGTAGGC: -0.0205
CGAGACTC: -0.175
AGACATCC: -0.0536
CCAGCGAC: -0.355
ACGGAACC: -0.0946
CAATGTGC: 0.0507
AAGTGGAA: 0.18
ACGCACGC: -0.141
